Assay results of several laboratories.
Parts stem from different laboratories: compare values within a part only. Changes are numbered by the printed parent chain.
Sequence of UniProt P49459 (whole entry, looked up): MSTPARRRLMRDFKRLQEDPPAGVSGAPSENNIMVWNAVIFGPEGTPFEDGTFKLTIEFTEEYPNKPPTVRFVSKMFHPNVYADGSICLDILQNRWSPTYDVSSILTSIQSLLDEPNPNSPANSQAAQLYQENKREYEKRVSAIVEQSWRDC
Sequence of UniProt Q9UNE7 (whole entry, looked up): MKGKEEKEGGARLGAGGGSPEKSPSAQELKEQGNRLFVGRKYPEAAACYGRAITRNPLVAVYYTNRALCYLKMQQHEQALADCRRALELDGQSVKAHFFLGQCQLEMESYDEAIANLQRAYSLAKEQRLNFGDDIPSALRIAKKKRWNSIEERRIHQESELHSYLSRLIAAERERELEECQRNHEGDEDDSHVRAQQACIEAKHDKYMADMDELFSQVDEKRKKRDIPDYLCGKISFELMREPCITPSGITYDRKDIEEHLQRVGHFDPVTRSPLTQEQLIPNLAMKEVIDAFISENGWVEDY

Sample 1
Target: MAFF, bZIP domain (human)
Technique: DHFR protein complementation
Sample: yeast
Setting: single substitutions, most at no-binding floor
Relative to: wild-type JUN-FOS pair
Reading: higher = stronger binding
Quantity: binding fitness
Starting sequence: JUN, bZIP domain (human); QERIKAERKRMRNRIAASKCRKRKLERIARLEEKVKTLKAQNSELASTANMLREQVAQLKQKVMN; partner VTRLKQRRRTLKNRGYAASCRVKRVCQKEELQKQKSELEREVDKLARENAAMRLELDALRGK
Change = R53A; result = -1.47 natural log
Change = L52V; result = -1.37 natural log
Change = K34R; result = -1.33 natural log
Change = S47V; result = -1.39 natural log
Change = V56A; result = -1.5 natural log
Change = R53N; result = -1.52 natural log
Change = A46L; result = -1.51 natural log
Change = L52K; result = -1.47 natural log

Sample 2
Target: RING finger protein unkempt homolog, zinc fingers 1-6, GST-SBP tag (UNK, Homo sapiens, UniProt Q9C0B0, residues 30-357)
Sequence of UniProt Q9C0B0 (30-357, looked up): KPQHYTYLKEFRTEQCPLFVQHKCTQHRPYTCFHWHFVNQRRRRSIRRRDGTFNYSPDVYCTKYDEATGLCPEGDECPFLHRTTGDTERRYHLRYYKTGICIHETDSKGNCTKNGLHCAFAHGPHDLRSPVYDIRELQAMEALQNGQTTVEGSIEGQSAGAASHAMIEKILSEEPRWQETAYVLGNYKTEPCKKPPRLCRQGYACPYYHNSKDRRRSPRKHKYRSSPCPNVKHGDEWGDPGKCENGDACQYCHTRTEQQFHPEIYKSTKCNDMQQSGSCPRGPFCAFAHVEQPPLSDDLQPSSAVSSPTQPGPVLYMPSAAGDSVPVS
Technique: RNA Bind-n-Seq
Form: RNA
Sample: in vitro
Concentration: not given
Setting: RNA with constant flanks, human-mouse chimeric sites, ends assumed
Relative to: input RNA pool
Reading: higher = stronger binding
Quantity: bound/input enrichment
Constant ends, left off below: GGGAGUUCUACAGUCCGACGAUC … CAACAGAGGAUUGAGCAUCA
Oligonucleotide = GAUAAGAAAAGCUUGUUGGAGACCCGAUUGCAUGUCACUGGUAGAGACCUGAGGUGUCAAAUAGCUGAAACUUUCGGACUUCAAGAAAAUUACAUCAAGAUCGUAAUAAAUAAGAAACAG; result = 0.247 ratio
Oligonucleotide = AUCCAGUACUCGAAUCACAAAGAACUAAAGACAGAUAAUACAUUAAACCAACGUGCUCAGGCAGUUCUUCAAGCUGUGACAGCUGUCCAGACAGCAAAUACACCUCUUAGUGGCACCACA; result = 0.369 ratio
Oligonucleotide = UGGGCACUCUAUCAGAUAUAUUAAUUUUUUAAUGUAGAUGUAAUUUUAAAAAUGAAUGGCUACUUUACACGUUUAACUAGGGUUUUACUACAUAUGUGUACAUAUGUAUAUAUAUAUAUA; result = 17.3 ratio
Oligonucleotide = GCUGAAAAUGAAGAAGAGGCAGCUGAUGUCUGGUACAACUUGGGACACAUAGCUGUGGGAAUCGGAGAUACAAACUUGGCCCAUCAGUGCUUCAGGCUGGCCCUGGUCCACAACAACCAC; result = 0.124 ratio
Oligonucleotide = UCUUAACGUCCAUUUAAAACUUAUUUUUAGCACUUAGUAAAUAUUGUUAGUCUUAGACAAUAGCUCACAUUUUUUGAGAAGCAUGCCCUCCCUGUCCAUUUGUCUUAUAACAUGACCCAG; result = 187 ratio
Oligonucleotide = AAUGUUCAUAUUUUGAGUGAAUAAAUGAAGCUAAAAUGUCUGCUUUUGGUACAACACGCAUUAAUAAAAGGUUAAGUUUUGUUUUCCACUGAAGUACUAUUUAACAUCUCAGAAAAAAAC; result = 0.163 ratio
Oligonucleotide = GAGCCCAGCCGGCAGUUUGUAAAGGACUCCAUUCGGCUGGUUAAAAGAUGCACCAAACCCGACAGAAAAGAAUUCCAGAAGAUUGCCAUGGCUACAGCAAUAGGAUUUGCUAUCAUGGGA; result = 0.15 ratio
Oligonucleotide = ACCAUUUUCGCGGUUCAGGCUUUGUGUGUAGUUCACUUACGGUAUUAAAUUAUUAUUGCCCUUAGUUUAUAAUAAGGAUAAUUGCAUGAUUUAAGUAUACUGAAUGUUACUCUGAAACUU; result = 0.238 ratio

Further values, each from its own experiment
Sample: yeast
Relative to: not given
CCNB2: CCNB2, cyclin fold, Cln2 fusion (human)
P1: viral docking peptide; TSVRRALFTGGSD; partner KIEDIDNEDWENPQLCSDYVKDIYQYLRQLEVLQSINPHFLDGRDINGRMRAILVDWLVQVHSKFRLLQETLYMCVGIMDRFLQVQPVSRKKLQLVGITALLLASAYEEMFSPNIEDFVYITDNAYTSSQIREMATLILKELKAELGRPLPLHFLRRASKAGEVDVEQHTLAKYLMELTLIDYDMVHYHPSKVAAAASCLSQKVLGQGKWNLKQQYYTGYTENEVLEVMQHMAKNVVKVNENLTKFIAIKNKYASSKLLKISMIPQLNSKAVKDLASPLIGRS
Molecule = P1 S12H; target = CCNB2; technique = yeast growth competition, sequencing; setting = strong parent motif; reading = higher = stronger binding; quantity = normalised enrichment score; result = 1
Molecule = STUB1 RING domain (UniProt Q9UNE7); target = UBE2A UBC core domain (UniProt P49459); technique = yeast two-hybrid; setting = mostly zero background; reading = higher = stronger interaction; quantity = lacZ reporter activity; result = 0
Molecule = P1 T9Q; target = CCNB2; technique = yeast growth competition, sequencing; setting = strong parent motif; reading = higher = stronger binding; quantity = normalised enrichment score; result = 0.821

Excerpt of the above (sample 2):
Oligonucleotide = GAUAAGAAAAGCUUGUUGGAGACCCGAUUGCAUGUCACUGGUAGAGACCUGAGGUGUCAAAUAGCUGAAACUUUCGGACUUCAAGAAAAUUACAUCAAGAUCGUAAUAAAUAAGAAACAG; result = 0.247 ratio
Oligonucleotide = AUCCAGUACUCGAAUCACAAAGAACUAAAGACAGAUAAUACAUUAAACCAACGUGCUCAGGCAGUUCUUCAAGCUGUGACAGCUGUCCAGACAGCAAAUACACCUCUUAGUGGCACCACA; result = 0.369 ratio
